# Experimental data pooled from the literature.
# Compare with care: the assays were run in different laboratories. ± marks the error that the study gave.
# T1: FMN riboswitch G8A/G9A/G74A/G96A (Lactobacillus plantarum); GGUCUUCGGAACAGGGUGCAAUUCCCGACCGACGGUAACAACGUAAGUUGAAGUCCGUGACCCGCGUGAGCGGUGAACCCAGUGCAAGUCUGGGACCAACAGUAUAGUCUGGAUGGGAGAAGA
Compound,target,test,test system,conditions,scale,quantity,value
O=P(O)(O)O[C@@H]1[C@@H](O)[C@@H](O[C@@H]2COC[C@@H]2OP(=O)(O)O)O[C@H](CO)[C@H]1OP(=O)(O)O,"Inositol 1,4,5-trisphosphate-gated calcium channel ITPR1, N-terminal region (Itpr1, Rattus norvegicus, UniProt P29994, del318-332/R504Q)",[3H]IP3 competition binding,N-terminal fragment,"Tris-EDTA medium, unit not given",reference: R504Q minus wild type,delta pKd,1.63 ± 0.1
Cc1cc2nc3c(=O)[nH]c(=O)nc-3n(CCO)c2cc1C,"T1, FMN riboswitch G8A/G9A/G74A/G96A (Lactobacillus plantarum)",ITC,,"pH 7.5, 25 °C, NaCl 100 mM",,Kd,54 nM
CC(=O)N[C@@H](CC(N)=O)C(=O)N[C@@H](CCCNC(=N)N)C(=O)N[C@@H](CCCNC(=N)N)C(=O)N[C@@H](CC(N)=O)C(=O)N[C@H](C(=O)N[C@@H](C)C(=O)N[C@@H](CC(N)=O)C(=O)N[C@@H](CCN1C(=O)c2ccc(N(C)C)cc2C1=O)C(=O)N[C@@H](CCCNC(=N)N)C(=O)N[C@H](C(=O)N[C@@H](CCCNC(=N)N)C(=O)N1CCC[C@H]1C(=O)N[C@@H](CCCNC(=N)N)C(=O)O)[C@@H](C)O)[C@@H](C)O,"Disks large homolog 4, PDZ1-2 domains (Homo sapiens, UniProt P78352)","PDZ domain binding, fluorescence emission intensity",PSD-95 PDZ1-2 tandem construct,4-DMAP-Dab at position -5,reference: probe without PDZ domain,relative fluorescence increase,1.7
O=C1/C=C\C(=O)N[C@@H](CC2CCCCC2)C(=O)N[C@@H](Cc2ccccc2)C(=O)N[C@@H](CCCNC(=O)c2cnccn2)C(=O)NCC[C@@H](C(=O)O)N1,"Proto-oncogene tyrosine-protein kinase Src (SRC, Gallus gallus, UniProt P00523, E280V)",inhibitor,,,reference: E280V over wild type,fold loss in potency,5 fold
Nc1ncnc2c1ncn2C1OC(COP(=O)(O)OP(=O)(O)OCC2OC(O)C(O)C2O)C(O)C1O (stereo not shown),"TRPM2 (Nematostella vectensis, UniProt A7T1N0)","activator, inside-out patch clamp","Xenopus oocytes, full-length TRPM2",with: 125 µM Ca2+,,Hill coefficient,1.4 ± 0.1
NS(=O)(=O)c1ccc(-n2nc(C(F)(F)F)cc2-c2ccc(F)cc2F)cc1,"Cyclooxygenase-2 (Canis lupus familiaris, UniProt Q8SPQ9)","PGE2 formation, inhibitor",dog whole blood,with: LPS,,IC80,5.4 µg/mL
Oc1c(C(Nc2nc3ccccc3s2)c2cccc(OCc3ccccc3)c2)ccc2cccnc12 (stereo not shown),"Genome polyprotein, NS2B-NS3 protease (Dengue virus type 2, UniProt P14340)","substrate, tetrapeptide cleavage",,"3 µM, 37 °C, without ZnCl2",,kcat,0.0972 ± 0.0029 s⁻¹
CC(=O)N[C@@H](CC(=O)O)C(=O)N[C@@H](CCC(=O)O)C(=O)N[C@H](C(=O)N[C@@H](CC(=O)O)C(=O)Nc1ccc2c(C)cc(=O)oc2c1)C(C)C,"Caspase-8 (CASP8, Homo sapiens, UniProt Q14790)","substrate cleavage, substrate, fluorogenic AMC release",,enzyme 0.25 activity units/µL,,Vmax,218 ± 2.74 RFU/min
COc1cc(C(=O)NC2CCC(N3CCN(CC4CCC5(CCCC5)C4)CC3)CC2)c(F)cc1Nc1ncc2c(n1)N(C1CCCC1(F)F)CC(F)(F)C(=O)N2C (stereo not shown),"Serine/threonine-protein kinase PLK4 (PLK4, Homo sapiens, UniProt O00444)","cell-free assay, TR-FRET",,10 µM,,inhibition,1.87%
CC1(C)CCN(Cc2ccc(C(=O)NC[C@]3(O)CCCN(c4cc(NCc5ccccc5)ncn4)C3)c(O)c2)CC1,"Tyrosine-protein kinase ABL1 (ABL1, Homo sapiens, UniProt P00519)","kinase activity, radiometric",,"10 µM, with: 10 µM ATP",,remaining activity,80%
O=C([O-])CN1CCN(CC(=O)[O-])CCN(C(CCC(=O)NCCCCCN(CCCC[C@H](NC(=O)N[C@@H](CCC(=O)O)C(=O)O)C(=O)O)C(=O)c2ccc(I)cc2)C(=O)O)CCN(CC(=O)[O-])CC1.[68Ga+3] (stereo partly shown),"Glutamate carboxypeptidase 2 (FOLH1, Homo sapiens, UniProt Q04609)",PET/CT,"human, liver metastasis",,,SUVmax,~6.9
BP(=O)(OP(=O)([O-])OC[C@H]1O[C@@H](n2c[n+](C)c3c(O)nc(N)nc32)[C@H](O)[C@@H]1O)OP(=O)(O)OC[C@H]1O[C@@H](n2cnc3c(=O)[nH]c(N)nc32)[C@H](O)[C@@H]1O (stereo partly shown),"m7GpppX diphosphatase (DCPS, Homo sapiens, UniProt Q96C86)","hydrolysis by DcpS, substrate, HPLC",,"15 µM, 10 min, pH 7.6, 20 °C, enzyme 200 nM",,cleavage,3%
COC(=O)c1cc2cc3c(cc2oc1=O)N(CC(=O)NC(Cc1ccc(C)cc1)C(=O)NCC=CS(=O)(=O)c1ccccc1)CCC3 (stereo not shown),"Rhodesain (rhodesain, Trypanosoma brucei rhodesiense, UniProt Q95PM0)","enzyme activity, irreversible inhibitor",,"60 min, pH 5.5, 37 °C, with: Z-Phe-Arg-AMC",,kinact/Ki,16100 M⁻¹ s⁻¹

# For quick reference, copied from above:
Compound,target,test,test system,conditions,scale,quantity,value
BP(=O)(OP(=O)([O-])OC[C@H]1O[C@@H](n2c[n+](C)c3c(O)nc(N)nc32)[C@H](O)[C@@H]1O)OP(=O)(O)OC[C@H]1O[C@@H](n2cnc3c(=O)[nH]c(N)nc32)[C@H](O)[C@@H]1O (stereo partly shown),"m7GpppX diphosphatase (DCPS, Homo sapiens, UniProt Q96C86)","hydrolysis by DcpS, substrate, HPLC",,"15 µM, 10 min, pH 7.6, 20 °C, enzyme 200 nM",,cleavage,3%
